Measured values gathered from unrelated publications.
Each line is one published result; not all experiments were run side by side.
FPR2: N-formyl peptide receptor 2 (FPR2, Homo sapiens, UniProt P25090)
UniProt P25090, sequence (whole entry, looked up): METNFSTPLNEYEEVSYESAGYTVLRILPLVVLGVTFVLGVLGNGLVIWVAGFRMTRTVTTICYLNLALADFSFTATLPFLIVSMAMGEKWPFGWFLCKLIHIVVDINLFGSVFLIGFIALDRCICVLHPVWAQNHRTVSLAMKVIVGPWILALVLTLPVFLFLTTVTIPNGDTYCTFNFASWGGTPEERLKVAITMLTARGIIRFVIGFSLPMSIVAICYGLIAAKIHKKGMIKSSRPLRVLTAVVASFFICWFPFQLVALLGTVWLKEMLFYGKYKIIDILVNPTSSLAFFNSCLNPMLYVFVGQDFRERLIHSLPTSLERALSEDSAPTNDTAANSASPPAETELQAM
SCTR: Secretin receptor (SCTR, Homo sapiens, UniProt P47872)
UniProt P47872, sequence (whole entry, looked up): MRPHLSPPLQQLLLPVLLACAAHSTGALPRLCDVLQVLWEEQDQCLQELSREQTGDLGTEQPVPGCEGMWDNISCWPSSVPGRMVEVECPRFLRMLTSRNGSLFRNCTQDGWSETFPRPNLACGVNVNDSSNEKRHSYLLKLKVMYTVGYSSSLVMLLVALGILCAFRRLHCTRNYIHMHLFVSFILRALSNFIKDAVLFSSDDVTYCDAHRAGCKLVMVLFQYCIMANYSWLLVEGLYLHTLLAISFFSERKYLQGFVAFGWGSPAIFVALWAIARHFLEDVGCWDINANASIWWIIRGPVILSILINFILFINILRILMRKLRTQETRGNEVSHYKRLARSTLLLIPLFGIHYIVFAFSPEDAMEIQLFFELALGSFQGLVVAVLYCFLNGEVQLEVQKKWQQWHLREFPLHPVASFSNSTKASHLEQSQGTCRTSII
RARB: Retinoic acid receptor beta (RARB, Homo sapiens, UniProt P10826)
UniProt P10826, sequence (whole entry, looked up): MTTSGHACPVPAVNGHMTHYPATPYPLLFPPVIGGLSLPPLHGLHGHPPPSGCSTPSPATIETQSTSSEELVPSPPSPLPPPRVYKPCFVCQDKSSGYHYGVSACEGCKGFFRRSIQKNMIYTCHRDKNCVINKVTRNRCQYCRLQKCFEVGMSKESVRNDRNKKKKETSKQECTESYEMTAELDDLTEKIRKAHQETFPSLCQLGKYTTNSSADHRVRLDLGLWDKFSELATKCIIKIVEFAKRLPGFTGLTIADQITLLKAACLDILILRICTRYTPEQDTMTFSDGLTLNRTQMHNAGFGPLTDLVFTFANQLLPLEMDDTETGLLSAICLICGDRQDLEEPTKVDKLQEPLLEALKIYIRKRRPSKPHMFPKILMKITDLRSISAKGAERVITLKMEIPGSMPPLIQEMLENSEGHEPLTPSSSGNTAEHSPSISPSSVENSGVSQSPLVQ
G-protein coupled receptor 39: G-protein coupled receptor 39 (Mus musculus, UniProt Q5U431)
UniProt Q5U431, sequence (whole entry, looked up): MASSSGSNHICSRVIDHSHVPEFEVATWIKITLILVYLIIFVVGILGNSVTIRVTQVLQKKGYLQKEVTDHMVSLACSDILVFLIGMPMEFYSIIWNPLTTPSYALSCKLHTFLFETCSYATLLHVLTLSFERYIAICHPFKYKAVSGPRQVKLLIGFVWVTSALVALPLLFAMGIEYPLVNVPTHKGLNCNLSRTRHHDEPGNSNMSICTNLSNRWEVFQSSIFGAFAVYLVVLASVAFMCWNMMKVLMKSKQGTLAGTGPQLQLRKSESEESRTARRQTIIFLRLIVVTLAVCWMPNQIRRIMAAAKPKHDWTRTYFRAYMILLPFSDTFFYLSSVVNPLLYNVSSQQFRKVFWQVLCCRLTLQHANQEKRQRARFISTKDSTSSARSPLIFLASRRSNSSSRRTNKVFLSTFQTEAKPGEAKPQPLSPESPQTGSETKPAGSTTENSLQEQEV
UniProt P0DMS8, sequence (whole entry, unmodified, looked up): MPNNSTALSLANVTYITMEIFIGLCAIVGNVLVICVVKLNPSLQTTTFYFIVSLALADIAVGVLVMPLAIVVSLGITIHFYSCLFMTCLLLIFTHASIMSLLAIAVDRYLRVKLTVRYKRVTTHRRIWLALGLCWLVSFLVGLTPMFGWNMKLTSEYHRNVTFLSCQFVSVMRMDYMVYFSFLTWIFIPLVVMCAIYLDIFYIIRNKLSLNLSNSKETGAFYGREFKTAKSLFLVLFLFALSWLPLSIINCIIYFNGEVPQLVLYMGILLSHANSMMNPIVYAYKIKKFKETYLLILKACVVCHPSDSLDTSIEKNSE
UniProt Q92570, sequence (whole entry, looked up): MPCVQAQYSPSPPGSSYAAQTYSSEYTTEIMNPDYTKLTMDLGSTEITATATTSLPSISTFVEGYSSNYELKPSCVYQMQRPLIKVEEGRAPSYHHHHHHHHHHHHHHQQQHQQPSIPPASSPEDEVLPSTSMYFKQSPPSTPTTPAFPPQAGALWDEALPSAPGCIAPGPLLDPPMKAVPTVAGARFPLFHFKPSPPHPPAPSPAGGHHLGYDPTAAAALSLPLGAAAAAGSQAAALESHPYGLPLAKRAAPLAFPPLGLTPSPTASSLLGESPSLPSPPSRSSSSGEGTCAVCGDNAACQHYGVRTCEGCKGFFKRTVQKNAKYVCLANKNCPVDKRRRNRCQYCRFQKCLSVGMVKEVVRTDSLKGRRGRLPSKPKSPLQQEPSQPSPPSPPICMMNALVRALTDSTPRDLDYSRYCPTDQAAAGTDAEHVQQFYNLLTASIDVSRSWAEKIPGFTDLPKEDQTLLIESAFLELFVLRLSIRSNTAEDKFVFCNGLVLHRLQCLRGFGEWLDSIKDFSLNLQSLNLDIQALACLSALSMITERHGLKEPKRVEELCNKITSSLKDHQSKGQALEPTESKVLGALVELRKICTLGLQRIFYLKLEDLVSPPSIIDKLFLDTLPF
UniProt Q8WZ84, sequence (whole entry, unmodified, looked up): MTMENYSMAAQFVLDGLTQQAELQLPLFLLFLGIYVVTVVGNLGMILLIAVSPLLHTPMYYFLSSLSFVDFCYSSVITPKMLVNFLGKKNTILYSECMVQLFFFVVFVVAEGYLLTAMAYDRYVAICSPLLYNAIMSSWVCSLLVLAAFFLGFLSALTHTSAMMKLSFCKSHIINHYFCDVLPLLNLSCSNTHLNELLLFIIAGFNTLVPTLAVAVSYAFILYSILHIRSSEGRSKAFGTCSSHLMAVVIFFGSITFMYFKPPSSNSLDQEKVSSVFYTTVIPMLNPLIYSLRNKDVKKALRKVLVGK
UniProt P35869, sequence (whole entry, looked up): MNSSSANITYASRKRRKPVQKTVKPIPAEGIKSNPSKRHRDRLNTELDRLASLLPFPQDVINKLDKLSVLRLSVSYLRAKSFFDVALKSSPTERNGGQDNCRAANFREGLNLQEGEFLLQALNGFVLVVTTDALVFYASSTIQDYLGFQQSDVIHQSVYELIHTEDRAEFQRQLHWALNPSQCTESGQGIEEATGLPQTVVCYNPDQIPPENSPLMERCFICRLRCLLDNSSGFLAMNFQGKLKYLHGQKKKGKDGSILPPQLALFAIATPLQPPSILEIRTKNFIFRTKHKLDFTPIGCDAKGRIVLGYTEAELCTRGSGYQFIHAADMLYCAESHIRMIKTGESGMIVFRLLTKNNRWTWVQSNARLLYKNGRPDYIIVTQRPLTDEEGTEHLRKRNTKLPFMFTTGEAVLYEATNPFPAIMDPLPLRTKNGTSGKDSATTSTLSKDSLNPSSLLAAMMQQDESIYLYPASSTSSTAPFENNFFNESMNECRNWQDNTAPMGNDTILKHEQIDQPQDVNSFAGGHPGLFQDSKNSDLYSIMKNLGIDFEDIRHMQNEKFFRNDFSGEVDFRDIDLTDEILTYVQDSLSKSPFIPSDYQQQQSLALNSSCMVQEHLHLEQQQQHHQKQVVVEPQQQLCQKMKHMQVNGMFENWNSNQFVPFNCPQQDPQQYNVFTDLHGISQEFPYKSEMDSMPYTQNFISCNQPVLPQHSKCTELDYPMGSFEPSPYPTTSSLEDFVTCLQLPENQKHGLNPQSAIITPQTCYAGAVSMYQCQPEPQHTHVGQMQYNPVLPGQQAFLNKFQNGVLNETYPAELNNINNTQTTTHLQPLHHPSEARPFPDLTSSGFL
UniProt O95259, sequence (whole entry, looked up): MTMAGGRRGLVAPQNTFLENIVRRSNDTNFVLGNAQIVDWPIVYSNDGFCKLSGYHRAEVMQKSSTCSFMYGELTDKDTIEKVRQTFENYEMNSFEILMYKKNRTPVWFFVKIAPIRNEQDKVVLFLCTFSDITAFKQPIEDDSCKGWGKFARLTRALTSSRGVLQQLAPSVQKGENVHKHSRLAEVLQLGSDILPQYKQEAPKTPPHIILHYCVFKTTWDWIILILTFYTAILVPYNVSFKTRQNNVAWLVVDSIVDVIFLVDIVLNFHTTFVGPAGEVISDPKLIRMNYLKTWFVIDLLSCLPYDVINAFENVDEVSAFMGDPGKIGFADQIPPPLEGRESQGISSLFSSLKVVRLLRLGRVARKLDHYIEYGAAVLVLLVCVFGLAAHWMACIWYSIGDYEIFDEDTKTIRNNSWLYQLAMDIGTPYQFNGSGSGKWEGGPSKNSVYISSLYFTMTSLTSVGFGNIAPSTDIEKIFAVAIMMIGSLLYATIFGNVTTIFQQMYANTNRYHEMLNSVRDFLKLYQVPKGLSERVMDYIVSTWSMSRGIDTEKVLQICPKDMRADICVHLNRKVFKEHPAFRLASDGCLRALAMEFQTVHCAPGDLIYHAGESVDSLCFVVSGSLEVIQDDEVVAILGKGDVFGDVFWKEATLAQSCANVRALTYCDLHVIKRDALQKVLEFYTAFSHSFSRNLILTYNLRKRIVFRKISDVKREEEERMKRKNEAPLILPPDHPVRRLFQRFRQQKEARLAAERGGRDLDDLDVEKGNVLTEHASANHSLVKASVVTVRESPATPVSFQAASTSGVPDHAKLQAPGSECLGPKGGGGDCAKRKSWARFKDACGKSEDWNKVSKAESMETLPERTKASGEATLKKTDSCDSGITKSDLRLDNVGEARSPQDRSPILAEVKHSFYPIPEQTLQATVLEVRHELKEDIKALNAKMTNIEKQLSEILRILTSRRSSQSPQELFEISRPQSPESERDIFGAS

With `N#Cc1ccc(C[C@H](Nc2nnc(-c3ccc(F)cc3)o2)C(=O)N2CCc3ccccc32)cc1` the EC50 was 1.2 µM (FPR2; calcium signal, agonist).
With `CN(C)c1ncnc2c1ncn2[C@@H]1O[C@H](CO)[C@@H](O)[C@H]1O` the EC50 was 2.4 µM (Adenosine receptor A3 (ADORA3, Homo sapiens, UniProt P0DMS8, V169T); G protein activation, agonist).
With `Cc1cc(Oc2ncccc2CN2CCN(c3ccccc3)CC2)ccc1-c1c(C)c(=O)[nH]c(=O)n1C` the EC50 was 112 µM (Alpha-2B adrenergic receptor (ADRA2B, Homo sapiens, UniProt P18089); cAMP, agonist, luciferase).
For `CC1=C(O)C(=O)OC1C` (stereo not shown), the EC50 was 11.5 µM (OR8D1 (Homo sapiens, UniProt Q8WZ84, K295A/R293A); cAMP, agonist, luciferase).
With `CC1=NN(/C(=N\c2ccncc2)Nc2nnc(C)s2)C(c2ccc(C)cc2)S1` (stereo not shown) the EC50 was over 50 µM (SCTR; cAMP, agonist, TR-FRET).
The EC50 of `CCCNc1nc2c(N)nc3ccccc3c2s1` is reported as 4.06 µM (Toll-like receptor 8 (TLR8, Homo sapiens, UniProt Q9NR97); reporter gene, agonist).
`CCc1ccc(C2=CC(C)(C)Sc3ccc(C#Cc4ccc(C(=O)O)cc4)cc32)cc1` has an EC50 of 0.00034 µM (RARB; reporter gene, antagonist, luciferase).
With `CC1=NN(/C(=N\c2ccc(OC(F)(F)F)cc2)Nc2nnc(C)s2)C(c2ccc(C)cc2)S1` (stereo not shown) the EC50 was over 50 µM (SCTR; cAMP, agonist, TR-FRET).
`CC(C)(C)c1ccc(COc2cccc(C(=O)O)c2)cc1` has an EC50 of 7 µM (Nuclear receptor subfamily 4 group A member 3 (Homo sapiens, UniProt Q92570); reporter gene, agonist).
The EC50 of `CC1=NN(/C(=N/c2nnc(C)s2)Nc2ccc(C)c(C)c2)C(c2ccc(-c3ccc(C(F)(F)F)cc3)cc2)S1` (stereo not shown) is reported as 0.1 µM (SCTR; cAMP, agonist, TR-FRET).
With `N#Cc1ccc(C[C@H](Nc2nnc(-c3ccc(F)cc3)s2)C(=O)N2CCc3ccccc32)cc1` the EC50 was 2 µM (FPR2; calcium signal, agonist).
For `CCOc1c(Br)cc(C(=O)Nc2ccc(C(=O)O)cc2)cc1C(=O)c1ccc(C)cc1`, the EC50 was over 5 µM (RARB; reporter gene, antagonist, luciferase).
With `CC1=NN(/C(=N\c2cccc(C)c2)Nc2nnc(C)s2)C(c2ccc(C)cc2)S1` (stereo not shown) the EC50 was 3.2 µM (SCTR; cAMP, agonist, TR-FRET).
With `CC(C)=CCNc1ncnc2c1ncn2[C@@H]1O[C@H](CO)[C@@H](O)[C@H]1O` the EC50 was 1.3 µM (Adenosine receptor A3 (ADORA3, Homo sapiens, UniProt P0DMS8, V169F); G protein activation, agonist).
`COC(=O)c1cccc(C(=O)c2c[nH]c3ncccc23)n1` gave an EC50 of 0.157 µM (Aryl hydrocarbon receptor (AHR, Homo sapiens, UniProt P35869); reporter gene, agonist, luciferase).
For `N#Cc1ccc(C[C@H](Nc2ncc(-c3ccc(F)cc3)o2)C(=O)N2CCc3ccccc32)cc1`, the EC50 was 50 µM (FPR2; calcium signal, agonist).
For `C[C@H](CCC(=O)NCC(=O)O)[C@H]1CC[C@H]2[C@@H]3[C@@H](O)C[C@@H]4C[C@H](O)CC[C@]4(C)[C@H]3CC[C@]12C`, the EC50 was over 200 µM (G-protein coupled receptor 39; calcium signal, agonist, fluorescence).
`CC1=NN(/C(=N\c2ccc(C)c(C)c2)Nc2nnc(C)s2)C(c2ccc(C)cc2)S1` (stereo not shown) has an EC50 of 0.9 µM (SCTR; cAMP, agonist, TR-FRET).
`C[C@H](CCC(=O)O)[C@H]1CC[C@H]2[C@@H]3[C@@H](O)C[C@@H]4C[C@H](O)CC[C@]4(C)[C@H]3CC[C@]12C` has an EC50 of over 200 µM (G-protein coupled receptor 39; calcium signal, agonist, fluorescence).
`CC1=NN(/C(=N/c2nnc(C)s2)Nc2ccc(C)c(C)c2)C(c2ccc(C(F)(F)F)cc2)S1` (stereo not shown) gave an EC50 of 0.3 µM (SCTR; cAMP, agonist, TR-FRET).
`C[C@H](CCC(=O)O)[C@H]1CC[C@H]2[C@@H]3[C@H](O)C[C@@H]4C[C@H](O)CC[C@]4(C)[C@H]3C[C@H](O)[C@]12C` gave an EC50 of over 200 µM (G-protein coupled receptor 39; calcium signal, agonist, fluorescence).
The EC50 of `CC1=NN(/C(=N/c2nnc(C)s2)Nc2ccc(C)c(C)c2)C(c2cccnc2)S1` (stereo not shown) is reported as 23.6 µM (SCTR; cAMP, agonist, TR-FRET).
`Cc1cccc(-c2nnc(N[C@@H](Cc3ccc(C#N)cc3)C(=O)N3CCc4ccccc43)o2)c1` gave an EC50 of 29.6 µM (FPR2; calcium signal, agonist).
`CC1=NN(/C(=N\c2ccccc2)Nc2nnc(C)s2)C(c2ccc(C)cc2)S1` (stereo not shown) gave an EC50 of 17.6 µM (SCTR; cAMP, agonist, TR-FRET).
The EC50 of `Cc1oc2ccccc2c1Cc1cc(I)c(OCC(=O)O)c(I)c1` is reported as 0.5 µM (Voltage-gated delayed rectifier potassium channel KCNH1 (KCNH1, Homo sapiens, UniProt O95259); ion current, agonist, patch clamp).

Excerpt of the above:
The EC50 of `CC1=NN(/C(=N/c2nnc(C)s2)Nc2ccc(C)c(C)c2)C(c2cccnc2)S1` (stereo not shown) is reported as 23.6 µM (SCTR; cAMP, agonist, TR-FRET).
With `N#Cc1ccc(C[C@H](Nc2nnc(-c3ccc(F)cc3)o2)C(=O)N2CCc3ccccc32)cc1` the EC50 was 1.2 µM (FPR2; calcium signal, agonist).
With `CC1=NN(/C(=N\c2ccc(OC(F)(F)F)cc2)Nc2nnc(C)s2)C(c2ccc(C)cc2)S1` (stereo not shown) the EC50 was over 50 µM (SCTR; cAMP, agonist, TR-FRET).
